Results gathered from unrelated publications.
Each line is one published result; not all experiments were run side by side. ± gives the spread as reported.

With `CCCC[C@H](NC(=O)CNC(=O)CNC(=O)CN1CCN(CC(=O)O)CCN(CC(=O)O)CC1)C(=O)N[C@H]1CC(=O)NCCCC[C@@H](C(N)=O)NC(=O)[C@H](Cc2c[nH]c3ccccc23)NC(=O)[C@H](CCCNC(=N)N)NC(=O)[C@@H](Cc2ccccc2)NC(=O)[C@H](Cc2c[nH]cn2)NC1=O` [copper-64 labelled] the uptake ratio was 40.4 (female C57 mouse, B16/F1 melanoma; intravenous, 0.037 MBq, 0.5 h; reference: tumour over muscle).
`CCCCCCCCCCCCCCCC(=O)N[C@@H](CCCCN)C(=O)N[C@@H](CCCCN)C(=O)N[C@@H](CO)C(=O)N[C@@H](CCCNC(=N)N)C(=O)N[C@@H](C)C(=O)N[C@@H](CC(C)C)C(=O)N[C@@H](Cc1ccccc1)C(N)=O`: “chest tube drainage” 425 mL (CABG patients; dose not given, 24 h, all doses combined).
`CN1CCC[C@]1(C)/C=C/S(=O)(=O)NC(=O)Nc1c2c(cc3c1CCC3)CCC2` gave an AUC(0-inf) of 27100 ng·h/mL (human, plasma; oral, 25 mg, single dose, healthy volunteers).
`CC(C)[C@H](NC(=O)CNC(=O)[C@H](CCC(N)=O)NC(=O)[C@H](C)N)C(=O)O` gave a clearance of 433 mL/min/kg (human, both sexes, plasma; intravenous infusion, 90 mg/kg/h, 2 h infusion, geometric mean).
With `CCCC[C@@H]1NC(=O)[C@@H](NC(=O)[C@H](CCC(=O)O)NC(=O)CNC(=O)CN2CCN(CC(=O)O)CCN(CC(=O)O)CCN(CC(=O)O)CC2)CCCCNC(=O)C[C@@H](C(N)=O)NC(=O)[C@H](C(C)C)NC(=O)[C@@H]2CCCN2C(=O)[C@H](CCCNC(=N)N)NC(=O)CNC(=O)[C@H](Cc2c[nH]c3ccccc23)NC(=O)[C@H](CCCNC(=N)N)NC(=O)[C@@H](Cc2ccccc2)NC(=O)[C@H](Cc2c[nH]cn2)NC(=O)[C@H](CCC(=O)O)NC1=O` [gallium-67 labelled] the urine excretion was 88.6 ± 6.78% (C57 mice, B16/F1 flank melanoma; intravenous, 0.037 MBq, 24 h).
`CNC(=O)N[C@]1(C)CCC[C@@]2(C)C3CC[C@@]4(C)C[C@]3(CCC21)CC4=O` (single isomer, unassigned) has a relative error of 7.1% (processed rat plasma; 1.5 ng/mL, 24 h, room temperature, autosampler stability; reference: nominal concentration).
`C[C@H]1Nc2nc(=O)c3[nH]ccc3n2Cc2ccc(Cl)cc21`: exposure ratio “not detected” (rat, male, plasma; 125 mg/kg; reference: rat over human 10 mg).
`CC(=O)N[C@H](CSSC[C@H](N)C(=O)O)C(=O)N[C@H](C)C(=O)N[C@H](CCCNC(=N)N)C(=O)N[C@H](CCCNC(=N)N)C(=O)N[C@H](CCCNC(=N)N)C(=O)N[C@H](C)C(=O)N[C@H](CCCNC(=N)N)C(N)=O` gave an AUC(0-inf) of 93.6 ng·h/mL (male human, plasma; intravenous, 0.5 mg, single dose, healthy volunteers).
`C[C@H]1C[C@@H](Oc2cccc(F)n2)CCN1Cc1cnc(N[11C](C)=O)s1` — result for “unchanged radioligand in plasma”: 35% (rhesus monkey, plasma; dose not given, 90 min, pre-blocking condition).
For `CCCCC/C=C/C=C/C(=O)NCC(C)C`, the relative error was 2.42% (processed rat plasma; 4000 ng/mL, 4 h, 20 °C, autosampler stability high QC; reference: nominal concentration).
With `Cc1cc2c(cc1C1(c3ncc(C(=O)O)cn3)CC1)C(C)(C)CCC2(C)C` the blood triglycerides was 118 ± 8.9 mg/dL (Sprague-Dawley rat, male; oral, 100 mg/kg, 3 h, sesame oil vehicle).
`Cn1cc(-c2cc(N3CCCS3(=O)=O)ccc2N[C@H]2CC[C@H](C)CC2)c2cc[nH]c2c1=O` has a Vss of 8.78 L/kg (Sprague-Dawley rat, plasma; intravenous, 1 mg/kg).
`CC(C)c1cnc(-c2cc(Cl)ccc2F)cc1Nc1ccncc1C(=O)NC(CO)CO`: “patients with treatment-related adverse event” 9.5% (monotherapy, item: blood alkaline phosphatase increased; human patients; oral, dose not given, grade 1, phase I A).
`O=C(CCc1ccc(CNC(C(=O)OC2CCCC2)C2CCCCC2)cn1)NO` (stereo not shown) has a CL/F of 159 L/h (human; 40 mg once daily, day 7, geometric mean).
The tracer uptake of `COc1cc2c(cc1OC)CN(CCCCn1ccc3cc(OCC[18F])ccc31)C2` is reported as 19 %ID/g (male CD-1 mouse, kidney; intravenous, 2 min).
`COC(=O)c1ccc(-c2cn(Cc3cc(Cl)ccc3O[11CH3])nn2)cc1`: “distribution volume (VT)” 0.54 mL/cm³ (PET Logan plot; rhesus monkey, basal ganglia; dose not given, t* 40 min).
`CSCOC1C(=O)C2(C)C(OCSC)CC3OCC3(OC(C)=O)C2C(OC(=O)c2ccccc2)C2(O)CC(OC(=O)C(O)C(C=C(C)C)NC(=O)OC(C)(C)C)C(C)=C1C2(C)C` (stereo not shown) gave an AUC(0-inf) of 167 ng·h/mL (female Sprague-Dawley rat, plasma; intravenous, 1 mg/kg).
`CC(C)(O)c1ncc([S@](N)(=O)=NC(=O)Nc2c3c(cc4c2CCC4)CCC3)s1` has a Cmax of 7680 ng/mL (human, plasma; oral, 100 mg, single dose, fed, healthy volunteers).
For `Cn1c(=O)oc2ccc(-c3ccc(CC(C#N)NC(=O)C4CNCCCO4)c(F)c3)cc21` (stereo not shown), “treatment-related adverse event incidence” read 3.7% (item: mouth ulceration; human volunteers; oral, dose not given).
Under “collision cross section”, `CC[C@H](C)[C@H](NC(=O)[C@@H]1CCCN1C(=O)CNC(=O)[C@H](Cc1ccccc1)NC(=O)[C@H](CC(N)=O)NC(=O)[C@H](CC(N)=O)NC(=O)[C@H](CO)NC(=O)[C@H](CO)NC(=O)[C@H](Cc1c[nH]cn1)NC(=O)[C@@H](NC(=O)[C@H](CC(C)C)NC(=O)[C@H](Cc1ccccc1)NC(=O)[C@H](CC(N)=O)NC(=O)[C@H](C)NC(=O)[C@H](CC(C)C)NC(=O)[C@H](CCCNC(=N)N)NC(=O)[C@H](CCC(N)=O)NC(=O)[C@@H](NC(=O)[C@H](C)NC(=O)[C@@H]1CSSC[C@H](NC(=O)[C@@H](N)CCCCN)C(=O)N[C@@H](CC(N)=O)C(=O)N[C@@H]([C@@H](C)O)C(=O)N[C@@H](C)C(=O)N[C@@H]([C@@H](C)O)C(=O)N1)[C@@H](C)O)C(C)C)C(=O)N[C@@H](CC(C)C)C(=O)N[C@@H](CO)C(=O)N1CCC[C@H]1C(=O)N[C@H](C(=O)N[C@@H](CC(N)=O)C(=O)N[C@H](C(=O)NCC(=O)N[C@@H](CO)C(=O)N[C@@H](CC(N)=O)C(=O)N[C@H](C(=O)N[C@@H](Cc1ccc(O)cc1)C(N)=O)[C@@H](C)O)C(C)C)[C@@H](C)O` is recorded as 896.1 ± 2.3 Å² (ion mobility mass spectrometry; nitrogen drift gas; dimer ion charge +4).
The Vd of `CC12CC(c3ccc(S(C)(=O)=O)cc3)C3=C4CCC(=O)C=C4CCC3C1CCC2(O)C(F)(F)C(F)(F)F` (stereo not shown) is reported as about 360 L (human, plasma; intravenous, 15.7 µg).
For `O=C([O-])CN1CCN(CC(=O)[O-])CCN(CC(=O)NC[C@H]2CC[C@H](C(=O)N[C@H](Cc3cnc4ccccc4c3)C(=O)NCCCC[C@H](NC(=O)N[C@@H](CCC(=O)O)C(=O)O)C(=O)O)CC2)CCN(CC(=O)[O-])CC1.[64Cu+2]`, the absorbed dose was 0.0391 mGy/MBq (PET/CT dosimetry OLINDA/EXM; healthy volunteers, adrenals; up to 24 h post-injection).
The relative error of `COc1ccc([C@@H]2CC(=O)c3c(O)cc(O[C@@H]4O[C@H](CO[C@@H]5O[C@@H](C)[C@H](O)[C@@H](O)[C@H]5O)[C@@H](O)[C@H](O)[C@H]4O)cc3O2)cc1O` is reported as -3.99% (rat plasma; 31.25 ng/mL, 12 h, room temperature, autosampler stability; reference: nominal concentration).
`C#CC1(NC(=O)C(CC(C)(C)F)NC(c2ccc(-c3ccc(S(C)(=O)=O)cc3)cc2)C(F)(F)F)CC1` (stereo not shown): “cysteine adduct formation” under 1% (LC-MS UV trace; aqueous buffer; concentration not given, 23 h, pH 5.5, 37 °C, together with: cysteine 10 mM).
For `COc1ccc(/C=C/c2ccc(-c3ccc(C)cn3)nc2)cc1`, the fluorescence lifetime was 0.92 ns (TCSPC; EtOH).
Under “maximal oral bioavailability”, `CN(C)Cc1ccc([C@H]2C[C@@]3(C)[C@@H](CC[C@@]3(O)C(F)(F)C(F)(F)F)[C@@H]3CCC4=CC(=O)CCC4=C32)cc1` is recorded as 98% (human liver microsomes; 100 % absorption assumed).
With `CC(C)[C@H](NC(=O)[C@@H]1CCCN1C(=O)[C@H](CCCNC(=N)N)NC(=O)[C@H](CS)NC(=O)[C@H](Cc1c[nH]c2ccccc12)NC(=O)[C@H](CCCNC(=N)N)NC(=O)[C@@H](Cc1ccccc1)NC(=O)[C@H](Cc1c[nH]cn1)NC(=O)[C@H](CCC(=O)O)NC(=O)[C@H](CS)NC(=O)[C@H](CS)NC(=O)CNC(=O)[C@@H]1CC(=O)N[C@@H](CCCNC(=N)N)C(=O)NCC(=O)N[C@@H](CC(=O)O)C(=O)N[C@H](Cc2ccc(O)cc2)C(=O)N1)C(N)=O` [technetium-99m labelled] the tumour-to-tissue ratio was 0.9 (C57 mice B16/F1 melanoma female; iv, 2 h, together with: NDP-MSH blockade; reference: tumour over lung).
For `Cc1ccc(OCC(=O)N(Cc2cccs2)c2ccn[nH]2)cc1`, the half-life was 33.6 min (male beagle dog, plasma; intravenous, 1.0 mg/kg).

Some of these lines once more:
For `O=C([O-])CN1CCN(CC(=O)[O-])CCN(CC(=O)NC[C@H]2CC[C@H](C(=O)N[C@H](Cc3cnc4ccccc4c3)C(=O)NCCCC[C@H](NC(=O)N[C@@H](CCC(=O)O)C(=O)O)C(=O)O)CC2)CCN(CC(=O)[O-])CC1.[64Cu+2]`, the absorbed dose was 0.0391 mGy/MBq (PET/CT dosimetry OLINDA/EXM; healthy volunteers, adrenals; up to 24 h post-injection).
The relative error of `COc1ccc([C@@H]2CC(=O)c3c(O)cc(O[C@@H]4O[C@H](CO[C@@H]5O[C@@H](C)[C@H](O)[C@@H](O)[C@H]5O)[C@@H](O)[C@H](O)[C@H]4O)cc3O2)cc1O` is reported as -3.99% (rat plasma; 31.25 ng/mL, 12 h, room temperature, autosampler stability; reference: nominal concentration).
`C#CC1(NC(=O)C(CC(C)(C)F)NC(c2ccc(-c3ccc(S(C)(=O)=O)cc3)cc2)C(F)(F)F)CC1` (stereo not shown): “cysteine adduct formation” under 1% (LC-MS UV trace; aqueous buffer; concentration not given, 23 h, pH 5.5, 37 °C, together with: cysteine 10 mM).
For `COc1ccc(/C=C/c2ccc(-c3ccc(C)cn3)nc2)cc1`, the fluorescence lifetime was 0.92 ns (TCSPC; EtOH).
Under “maximal oral bioavailability”, `CN(C)Cc1ccc([C@H]2C[C@@]3(C)[C@@H](CC[C@@]3(O)C(F)(F)C(F)(F)F)[C@@H]3CCC4=CC(=O)CCC4=C32)cc1` is recorded as 98% (human liver microsomes; 100 % absorption assumed).
